Measured values gathered from unrelated publications.
Numbered parts are unrelated; each lists some results of a single study.

Sample 1 — method: protein-binding microarray; molecule type: double-stranded DNA, one strand shown; matrix: in vitro; concentration: 2540 nM top; setting: 60-bp whole probe; added: salmon DNA 0.4 mg/ml; baseline: random background probes; direction: higher = stronger binding; constant ends, left off below: GCCTAGCAC … GTCTTGATTCGCTTGACGCTGCTG
Target: Interferon regulatory factor 3, full length, phosphomimetic (IRF3, Homo sapiens, UniProt Q14653, residues 1-427, S386D/S396D/S398D/S402D/T404D/S405D)
Residues (chain): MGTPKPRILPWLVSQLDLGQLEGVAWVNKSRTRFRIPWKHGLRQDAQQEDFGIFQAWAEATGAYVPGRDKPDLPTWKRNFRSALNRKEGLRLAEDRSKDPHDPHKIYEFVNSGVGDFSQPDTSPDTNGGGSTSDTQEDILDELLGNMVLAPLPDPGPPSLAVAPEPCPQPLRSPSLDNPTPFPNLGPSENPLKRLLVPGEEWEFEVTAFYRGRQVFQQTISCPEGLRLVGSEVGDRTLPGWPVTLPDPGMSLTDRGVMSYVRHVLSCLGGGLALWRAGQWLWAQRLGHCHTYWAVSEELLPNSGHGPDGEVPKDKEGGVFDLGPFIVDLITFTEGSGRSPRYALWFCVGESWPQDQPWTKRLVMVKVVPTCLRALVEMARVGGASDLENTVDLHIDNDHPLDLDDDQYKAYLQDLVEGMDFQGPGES
For `TTAGGTATCCTTAACCTTTAGTGCTAG`, “fitted relative affinity” read 2.25 z-score.
`CGAGATCTCCGAGATGCCTTCGTGCTA` — result for “fitted relative affinity”: -0.363 z-score.
For `TAAGATTTCGGGTTTCGATTAGTGCTA`, “fitted relative affinity” read 3.22 z-score.
`TCATTTTCCTCTGTCATACTGTGCTAG` — result for “fitted relative affinity”: 2.96 z-score.
`GACGGTCTGGGTTTCGGGACGTGCTAG`: “fitted relative affinity” 1.15 z-score.
Under “fitted relative affinity”, `TCAGATTTCAGTTTCGATTAGTGCTAG` is recorded as 6.13 z-score.
For `AAGTTTACCCATCTCCAGTAGTGCTAG`, “fitted relative affinity” read 2.13 z-score.
Under “fitted relative affinity”, `GACGGTATCGGGTTTCGGGACGTGCTA` is recorded as 3.04 z-score.
For `TTAGGTTCCCTTTTCCGTTAGTGCTAG`, “fitted relative affinity” read 7.1 z-score.
For `GACGATCTCGGTATCGGGACGTGCTAG`, “fitted relative affinity” read 1.33 z-score.
`GACGGTTCCCTTTTTCTGACGTGCTAG`: “fitted relative affinity” 5.89 z-score.
`GACGATCTCGGTTTCGGGACGTGCTAG` — result for “fitted relative affinity”: 3.16 z-score.
`GTAGGTATCGACACTGGGTTAGTGCTA` — result for “fitted relative affinity”: 0.112 z-score.
Under “fitted relative affinity”, `TTAGGTCTCCTACGGCTTTAGTGCTAG` is recorded as -0.311 z-score.
Under “fitted relative affinity”, `GACGGTCTCGGTATCGGGCCGTGCTAG` is recorded as 1.25 z-score.
Under “fitted relative affinity”, `TTACGACTGCTTTTCCTTTAGTGCTAG` is recorded as 0.794 z-score.
Under “fitted relative affinity”, `GACGCTTTCGACACTGGGGACGTGCTA` is recorded as 0.739 z-score.
`GACGGTTTCCTTTTCCTGAAGTGCTAG` — result for “fitted relative affinity”: 10.9 z-score.
`CACATTCTCTGCTTGGGTCTGTGCTAG`: “fitted relative affinity” 2.27 z-score.
Under “fitted relative affinity”, `TCACTTTTGGCTTTCCTACTGTGCTAG` is recorded as 1.72 z-score.
For `GACGGACTGGGGACTGGGGCCGTGCTA`, “fitted relative affinity” read -1.12 z-score.
`TTAGAACTGAGGTTTCGATTAGTGCTA`: “fitted relative affinity” 2.23 z-score.
`TCAATTTTCTGAATGCTACTGTGCTAG`: “fitted relative affinity” 1.43 z-score.
`TTAGGACTGGAATTTCGGTTAGTGCTA`: “fitted relative affinity” 0.648 z-score.
For `TTAGATTTCGGGATTCGATTAGTGCTA`, “fitted relative affinity” read 1.81 z-score.

Sample 2 — method: protein binding microarray; molecule type: double-stranded DNA, one strand shown; matrix: in vitro; concentration: not given; baseline: not given; direction: higher = stronger binding
Target: Histone acetyltransferase KAT6A, both winged helices, GST fusion (KAT6A, Homo sapiens, UniProt Q92794, residues 1-181)
Setting: 8-mer, flanks averaged, mean of 2 arrays, mostly near background
Construct (chain): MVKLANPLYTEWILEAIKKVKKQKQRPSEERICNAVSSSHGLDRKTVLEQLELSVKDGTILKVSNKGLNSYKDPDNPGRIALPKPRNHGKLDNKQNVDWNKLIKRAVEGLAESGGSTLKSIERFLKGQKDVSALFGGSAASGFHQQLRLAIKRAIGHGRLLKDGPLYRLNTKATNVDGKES
`TGTGCAAA` has an E-score of -0.108.
`CTTTATAA` gave an E-score of -0.0402.
The E-score of `ATACCGAA` is reported as 0.142.
`CAAGGAGC` has an E-score of -0.0593.
`CGTTTGCC` has an E-score of 0.0908.
The E-score of `CATAGAAG` is reported as -0.0537.
`TGAATGAA` has an E-score of -0.127.
For `CAAAATGA`, the E-score was 0.0372.
For `CGAGTCCG`, the E-score was 0.273.
`TTCGACAA` gave an E-score of -0.138.
`ACGGAAGG` has an E-score of 0.172.
For `CCCGCGAC`, the E-score was 0.234.
For `CCAGCATC`, the E-score was -0.168.
With `CGCTGCAG` the E-score was 0.114.
The E-score of `ACCCCGCA` is reported as 0.207.
The E-score of `GATTTACC` is reported as -0.0229.

Sample 3 — method: RNA Bind-n-Seq; molecule type: RNA; matrix: in vitro; concentration: 200 nM; setting: whole 134-nt RNA, ends assumed; added: 150 mM KCl; baseline: input library; direction: higher = stronger binding
Target: Fragile X messenger ribonucleoprotein 1, C-terminal low-complexity region (Fmr1, Mus musculus, UniProt P35922)
`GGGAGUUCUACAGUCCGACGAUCUCCUGUGCUACACAUCGUAUGUACCGAAUCGGGGAAAAAAGGGGAAAAAAGGAAAAAAGGAAAGUAUUAUGUUACGCCGUUCGGAUCUGCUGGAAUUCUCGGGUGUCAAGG` gave a log2 enrichment of -0.264.
`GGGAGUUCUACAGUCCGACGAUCCCUGUGCUACACAUCGUAUGUACCGAAUCAAACCCCCCCAAAUUUUUUUAAAUUUUUAAAAAAGUAUUAUGUUACGCCGUUCGGAUCUGCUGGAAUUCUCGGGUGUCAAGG` gave a log2 enrichment of 0.139.
The log2 enrichment of `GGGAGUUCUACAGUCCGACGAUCUGGCCCUGGUGGCAUGCGGGGAGGAAGAGGUGGCCUCAUGGAUCGUGGUGGUCCCGGUGGAAUGUUCAGAGGUCGCCGUGGUGGAGACAGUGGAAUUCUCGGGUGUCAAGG` is reported as -0.462.
For `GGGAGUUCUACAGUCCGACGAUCUCAGUGUCUUACCCUGAAGAGAAAGUUGUAGGUUGGCUGUUGAAAUUCAUUCCUUAGAUAUGAUCAGUUUGAUUGCCCGGCUUUAUUGCCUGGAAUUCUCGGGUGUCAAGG`, the log2 enrichment was -1.59.
`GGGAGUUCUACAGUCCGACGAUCCUCAAGUCCUGUGCUACACAUCGUAUGUACCGAAUCGGGAAGGGAAGGAAGGGGAAAGUAUUAUGUUACGCCGUUCGGAUCUGCACUUCCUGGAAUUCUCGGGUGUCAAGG` has a log2 enrichment of 0.766.
`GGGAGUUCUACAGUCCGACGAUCCACAGACAACACGCACCCACUCAGACACAGAGGGAAGGGGUUGGGAUGGGGACAGGGUGCACAGCAGGGCGGGGUAGGACCCCAGCCCCUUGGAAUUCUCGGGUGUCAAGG` gave a log2 enrichment of 1.33.
`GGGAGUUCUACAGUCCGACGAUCUUCCUCAAGUCCUGUGCUACACAUCGUAUGUACCGAAUCGGGCGGCGGCGGAAAGUAUUAUGUUACGCCGUUCGGAUCUGCACUUCCAGCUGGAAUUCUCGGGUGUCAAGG` gave a log2 enrichment of -0.0404.
`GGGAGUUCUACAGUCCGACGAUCUACCUUUAGAGGAGGAUCUGAUGGAUAUGGCAGUGGACGUGGAUUUGGGGAUGGCUAUAAUGGGUAUGGAGGAGGACCUGGAGGUGGCAAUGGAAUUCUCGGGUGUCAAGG` gave a log2 enrichment of 0.307.
`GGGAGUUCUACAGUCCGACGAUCCUGUGCUACACAUCGUAUGUACCGAAUCGGCCCCCCCGGGCCCCCCCGGGGCCCCCCCGGGGAAAGUAUUAUGUUACGCCGUUCGGAUCUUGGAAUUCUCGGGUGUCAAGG` gave a log2 enrichment of -1.16.
With `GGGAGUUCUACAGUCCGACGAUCUCAAGUCCUGUGCUACACAUCGUAUGUACCGAAUCGGAAAGGAAAAAAAGGAGGAAAGUAUUAUGUUACGCCGUUCGGAUCUGCACUUCCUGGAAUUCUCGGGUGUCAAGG` the log2 enrichment was -0.408.

Sample 4 — method: aptamer microarray, sandwich; molecule type: DNA with 2'F-ANA; matrix: in vitro; concentration: 200 nM; added: Cy3 exosite-II aptamer, 400 nM; direction: higher = stronger binding; sequence: GGTTGGTGTGGTTGG
Target: Prothrombin, mature alpha-thrombin (F2, Homo sapiens, UniProt P00734)
Setting: whole 15-mer aptamer, many near background
`2'F-ANA at 4 5 7 10 12 13 15`: “mean fluorescence intensity” 47.3 a.u.
`2'F-ANA at 6 10 11 12` — result for “mean fluorescence intensity”: 352 a.u.
For `2'F-ANA at 6 8 11 12 14 15`, “mean fluorescence intensity” read 204 a.u.
For `2'F-ANA at 3 8 10 12`, “mean fluorescence intensity” read 672 a.u.
`2'F-ANA at 2 3 4 6 7 8 9 10`: “mean fluorescence intensity” 357 a.u.
For `2'F-ANA at 2 3 8 9 10`, “mean fluorescence intensity” read 421 a.u.
For `2'F-ANA at 2 8 9 10 12 15`, “mean fluorescence intensity” read 164 a.u.
For `2'F-ANA at 9 10 11`, “mean fluorescence intensity” read 154 a.u.
Under “mean fluorescence intensity”, `2'F-ANA at 5 11 14 15` is recorded as 45.8 a.u.
For `2'F-ANA at 1 2 3 4 5 6 10 11 12 15`, “mean fluorescence intensity” read 51 a.u.
`2'F-ANA at 1 2 4 5 7 8`: “mean fluorescence intensity” 64.5 a.u.
Under “mean fluorescence intensity”, `2'F-ANA at 5 7 8 12 13 14 15` is recorded as 46.9 a.u.
Under “mean fluorescence intensity”, `2'F-ANA at 1 4 8 9 10 11 12 14 15` is recorded as 47.3 a.u.
`2'F-ANA at 1 2 3 4 5 6 7 8 9 12 13 14`: “mean fluorescence intensity” 66.1 a.u.
`2'F-ANA at 1 3 5 7 8 9 11 12 13 15`: “mean fluorescence intensity” 85.3 a.u.
For `2'F-ANA at 3 5 6 7 9 10 12 15`, “mean fluorescence intensity” read 62.3 a.u.
Under “mean fluorescence intensity”, `2'F-ANA at 1 2 3 5 6 8 10 14` is recorded as 47.6 a.u.
`2'F-ANA at 2 5 7 10 11`: “mean fluorescence intensity” 44.9 a.u.
`2'F-ANA at 1 2 6 7 9 10 11 12 13 15` — result for “mean fluorescence intensity”: 64.6 a.u.
`2'F-ANA at 2 3 7 9 12 14`: “mean fluorescence intensity” 465 a.u.
Under “mean fluorescence intensity”, `2'F-ANA at 1 2 4 9 14 15` is recorded as 49.2 a.u.
`2'F-ANA at 1 2 4 6 8 9 11 12 13 14 15`: “mean fluorescence intensity” 71.8 a.u.
`2'F-ANA at 10 12`: “mean fluorescence intensity” 240 a.u.
For `2'F-ANA at 3 4 6 7 8 10 12 15`, “mean fluorescence intensity” read 303 a.u.
For `2'F-ANA at 1 3 5 6 8 11 13 14`, “mean fluorescence intensity” read 45.5 a.u.

A few entries again (sample 1):
For `TAAGATTTCGGGTTTCGATTAGTGCTA`, “fitted relative affinity” read 3.22 z-score.
`TCATTTTCCTCTGTCATACTGTGCTAG` — result for “fitted relative affinity”: 2.96 z-score.
`GACGGTCTGGGTTTCGGGACGTGCTAG`: “fitted relative affinity” 1.15 z-score.
Under “fitted relative affinity”, `TCAGATTTCAGTTTCGATTAGTGCTAG` is recorded as 6.13 z-score.
